Results of several laboratories.
Compare with care: the assays were run in different laboratories. “And” joins repeats or separate records; there may be more than shown. ± gives the spread as reported.
GBA1 R534H: Lysosomal acid glucosylceramidase (GBA1, Homo sapiens, UniProt P04062, R534H)
Sequence of UniProt P04062 (whole entry, unmodified, looked up): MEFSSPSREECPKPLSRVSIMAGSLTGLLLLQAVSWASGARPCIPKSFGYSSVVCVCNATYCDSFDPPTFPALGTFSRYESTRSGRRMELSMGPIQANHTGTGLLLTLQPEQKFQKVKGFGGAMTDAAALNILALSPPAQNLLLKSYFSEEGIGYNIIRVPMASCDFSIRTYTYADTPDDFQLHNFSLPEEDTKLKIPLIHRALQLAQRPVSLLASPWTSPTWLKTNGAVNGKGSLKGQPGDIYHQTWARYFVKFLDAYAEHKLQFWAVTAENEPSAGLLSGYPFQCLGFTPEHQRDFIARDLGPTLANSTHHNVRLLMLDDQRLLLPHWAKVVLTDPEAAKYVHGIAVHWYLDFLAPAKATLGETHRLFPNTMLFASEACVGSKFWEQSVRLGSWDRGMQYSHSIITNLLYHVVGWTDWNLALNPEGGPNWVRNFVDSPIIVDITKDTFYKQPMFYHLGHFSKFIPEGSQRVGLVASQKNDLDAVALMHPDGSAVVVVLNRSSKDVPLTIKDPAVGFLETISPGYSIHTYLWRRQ
Sequence of UniProt Q8TDS7 (whole entry, looked up): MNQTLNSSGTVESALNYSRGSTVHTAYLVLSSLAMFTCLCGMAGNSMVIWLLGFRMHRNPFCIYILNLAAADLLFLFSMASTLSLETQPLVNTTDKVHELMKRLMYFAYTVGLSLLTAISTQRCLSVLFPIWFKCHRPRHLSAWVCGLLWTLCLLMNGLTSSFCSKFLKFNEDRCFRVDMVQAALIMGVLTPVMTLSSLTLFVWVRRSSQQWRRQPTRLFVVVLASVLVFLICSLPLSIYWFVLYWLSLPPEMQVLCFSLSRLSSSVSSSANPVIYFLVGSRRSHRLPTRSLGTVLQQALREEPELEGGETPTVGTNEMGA
Sequence of UniProt P78368 (whole entry, looked up): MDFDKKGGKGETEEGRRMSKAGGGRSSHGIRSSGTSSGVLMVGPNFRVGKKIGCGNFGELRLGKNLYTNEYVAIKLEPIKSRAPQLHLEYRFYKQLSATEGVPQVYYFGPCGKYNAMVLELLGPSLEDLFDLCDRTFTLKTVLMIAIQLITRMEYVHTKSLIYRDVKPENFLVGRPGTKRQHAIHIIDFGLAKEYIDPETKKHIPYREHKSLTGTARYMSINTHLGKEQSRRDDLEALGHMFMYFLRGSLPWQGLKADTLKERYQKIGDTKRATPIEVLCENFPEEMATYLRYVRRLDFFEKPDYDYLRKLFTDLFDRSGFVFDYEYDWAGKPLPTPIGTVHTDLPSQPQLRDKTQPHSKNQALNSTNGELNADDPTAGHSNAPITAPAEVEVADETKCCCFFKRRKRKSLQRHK
Sequence of UniProt Q53HV7 (whole entry, looked up): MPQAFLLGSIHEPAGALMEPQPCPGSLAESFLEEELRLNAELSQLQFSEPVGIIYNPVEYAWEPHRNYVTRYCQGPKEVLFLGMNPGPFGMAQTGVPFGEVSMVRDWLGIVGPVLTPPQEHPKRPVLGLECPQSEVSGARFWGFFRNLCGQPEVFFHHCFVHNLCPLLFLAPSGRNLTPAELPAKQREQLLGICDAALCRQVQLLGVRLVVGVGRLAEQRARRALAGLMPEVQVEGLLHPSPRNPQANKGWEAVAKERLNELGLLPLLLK

| Compound | tested on | assay | test system | setting | how to read | endpoint | value |
| --- | --- | --- | --- | --- | --- | --- | --- |
| COc1ccc(C2(C(=O)N3CCC(Nc4nc5ccccc5c(=O)[nH]4)CC3)CC2)cc1 | MRGPRD (Homo sapiens, UniProt Q8TDS7) | miniGq recruitment, agonist, BRET | HEK293T | wild type | – | EC50 | 221 nM |
| COc1cc(C2C(NC(=O)c3ccc(NC(=O)OC(C)(C)C)cc3)(C(=O)O)C(c3ccc(OC(=O)c4cccs4)c(OC)c3)C2(NC(=O)c2ccc(NC(=O)OC(C)(C)C)cc2)C(=O)O)ccc1OC(=O)c1cccs1 (stereo not shown) | GLP1R (Homo sapiens, UniProt P43220, F381A) | cAMP, agonist | – | – | – | EC50 | 15.8 nM |
| CCCC[C@@H]1NC(=O)[C@@H](CC(C)C)NC(=O)[C@H](CCCCNC(=O)CN2CCN(CC(=O)O)CCN(CC(=O)O)CC2)NC(=O)[C@@H](CO)NC(=O)[C@H](Cc2c[nH]cn2)NC(=O)[C@@H](Cc2c[nH]c3ccccc23)NC1=O [copper-64 labelled] | – | – | Balb/c mice, pancreas | intravenous, dose not given | – | tissue uptake | 0.15 ± 0.06 %ID/g |
| COc1cc2nc(Cl)nc(Nc3ccc(Oc4cccc(-c5ccccc5)c4)cc3)c2cc1OC | SMUG1 (Homo sapiens, UniProt Q53HV7) | enzyme activity, activator, fluorescence | – | – | – | AC50 | 600 nM |
| CSCC[C@H](NC(=O)[C@H](CCC(N)=O)NC(=O)[C@H](CCCCN)NC(=O)[C@H](CCCNC(=N)N)NC(=O)[C@H](Cc1ccc(O)cc1)NC(=O)[C@H](CCCNC(=N)N)NC(=O)[C@H](CO)NC(=O)[C@H](Cc1ccc(O)cc1)NC(=O)[C@H](CO)NC(=O)[C@H](CC(=O)O)NC(=O)[C@@H](NC(=O)[C@@H](N)Cc1ccccc1)[C@@H](C)O)C(=O)N[C@@H](C)C(=O)N[C@H](C(=O)N[C@@H](CCCCN)C(=O)N[C@@H](CCCCN)C(=O)N[C@@H](Cc1ccc(O)cc1)C(=O)N[C@@H](CC(C)C)C(=O)N[C@@H](C)C(=O)N[C@@H](C)C(=O)N[C@H](C(=O)N[C@@H](CC(C)C)C(=O)NCC(=O)N[C@@H](CCCCN)C(=O)N[C@@H](CCCNC(=N)N)C(=O)N[C@@H](Cc1ccc(O)cc1)C(=O)N[C@@H](CCCCN)C(=O)N[C@@H](CCC(N)=O)C(=O)N[C@@H](CCCNC(=N)N)C(=O)N[C@H](C(=O)N[C@@H](CCCCN)C(=O)N[C@@H](CC(N)=O)C(=O)N[C@@H](CCCCn1cc(C[C@H](NC(=O)CNC(=O)[C@H](CO)NC(=O)[C@H](CCCNC(=N)N)NC(=O)[C@H](CO)NC(=O)[C@H](CC(C)C)NC(=O)[C@H](CC(C)C)NC(=O)CNC(=O)[C@H](C)NC(=O)[C@H](CC(C)C)NC(=O)[C@H](CCCNC(=N)N)NC(=O)[C@H](Cc2c[nH]cn2)NC(=O)[C@@H](NC(=O)[C@@H](N)C(C)C)[C@@H](C)O)C(=O)N[C@H](C(=O)N[C@H](C(=O)N[C@@H](CCCCN)C(=O)N[C@@H](CC(N)=O)C(=O)N[C@@H](CC(N)=O)C(=O)N[C@@H](Cc2ccccc2)C(=O)N[C@H](C(=O)N2CCC[C@H]2C(=O)N[C@H](C(=O)N[C@@H](CC(N)=O)C(=O)N[C@H](C(=O)NCC(=O)N[C@@H](CO)C(=O)N[C@@H](CCCCN)C(=O)N[C@@H](C)C(=O)N[C@@H](Cc2ccccc2)C(N)=O)C(C)C)[C@@H](C)O)C(C)C)C(C)C)C(C)C)nn1)C(N)=O)C(C)C)C(C)C)C(C)C | PACAP-responsive receptors, rat | cAMP accumulation, antagonist | rat spinal cord | together with: VIP | – | Kb | 229 nM |
| OC[C@@H]1[C@@H](O)[C@H](O)[C@@H](O)CN1CCCCCOCc1ccc(-c2ccccc2)cn1 | GBA1 R534H | inhibitor, 4MU-β-D-glucopyranoside | – | together with: 4MU-β-D-glucopyranoside | – | IC50 | 1500 nM |
| Cc1nn(-c2cccc(N)c2)c(=O)c2cnc(Nc3ccc(N4CCNCC4)cc3)nc12 | CSNK1G2 (Homo sapiens, UniProt P78368) | SelectScreen kinase | – | – | – | IC50 | > 10000 nM |
| CCC(C)n1ncn(-c2ccc(N3CCN(c4ccc(OCC5COC(Cn6cncn6)(c6ccc(Cl)cc6Cl)O5)cc4)CC3)cc2)c1=O (mixture of isomers) | Trypanosoma cruzi | reporter mRNA translation, inhibitor, item: Renilla luciferase mRNA | cell-free extract | concentration not given | reference: positive over negative control | translation activity | 95.3% and 140% |
| CSCC[C@H](NC(=O)[C@H](CCC(N)=O)NC(=O)[C@H](CCCCN)NC(=O)[C@H](CCCNC(=N)N)NC(=O)[C@H](Cc1ccc(O)cc1)NC(=O)[C@H](CCCNC(=N)N)NC(=O)[C@H](CO)NC(=O)[C@H](Cc1ccc(O)cc1)NC(=O)[C@H](CO)NC(=O)[C@H](CC(=O)O)NC(=O)[C@@H](NC(=O)[C@@H](N)Cc1ccccc1)[C@@H](C)O)C(=O)N[C@@H](C)C(=O)N[C@H](C(=O)N[C@@H](CCCCN)C(=O)N[C@@H](CCCCN)C(=O)N[C@@H](Cc1ccc(O)cc1)C(=O)N[C@@H](CC(C)C)C(=O)N[C@@H](C)C(=O)N[C@@H](C)C(=O)N[C@H](C(=O)N[C@@H](CC(C)C)C(=O)NCC(=O)N[C@@H](CCCCN)C(=O)N[C@@H](CCCNC(=N)N)C(=O)N[C@@H](Cc1ccc(O)cc1)C(=O)N[C@@H](CCCCN)C(=O)N[C@@H](CCC(N)=O)C(=O)N[C@@H](CCCCn1cc(C[C@H](NC(=O)CNC(=O)[C@H](CO)NC(=O)[C@H](CCCNC(=N)N)NC(=O)[C@H](CO)NC(=O)[C@H](CC(C)C)NC(=O)[C@H](CC(C)C)NC(=O)CNC(=O)[C@H](C)NC(=O)[C@H](CC(C)C)NC(=O)[C@H](CCCNC(=N)N)NC(=O)[C@H](Cc2c[nH]cn2)NC(=O)[C@@H](NC(=O)[C@@H](N)C(C)C)[C@@H](C)O)C(=O)N[C@H](C(=O)N[C@H](C(=O)N[C@@H](CCCCN)C(=O)N[C@@H](CC(N)=O)C(=O)N[C@@H](CC(N)=O)C(=O)N[C@@H](Cc2ccccc2)C(=O)N[C@H](C(=O)N2CCC[C@H]2C(=O)N[C@H](C(=O)N[C@@H](CC(N)=O)C(=O)N[C@H](C(=O)NCC(=O)N[C@@H](CO)C(=O)N[C@@H](CCCCN)C(=O)N[C@@H](C)C(=O)N[C@@H](Cc2ccccc2)C(N)=O)C(C)C)[C@@H](C)O)C(C)C)C(C)C)C(C)C)nn1)C(=O)N[C@H](C(=O)N[C@@H](CCCCN)C(=O)N[C@@H](CC(N)=O)C(=O)N[C@@H](CCCCN)C(N)=O)C(C)C)C(C)C)C(C)C | PACAP-responsive receptors, rat | cAMP accumulation, antagonist | rat spinal cord | together with: VIP | – | Kb | 417 nM |
| O=C(CCCCCN1C[C@H](O)[C@@H](O)[C@H](O)[C@@H]1CO)NC12CC3CC(CC(C3)C1)C2 | GBA1 R534H | inhibitor, 4MU-β-D-glucopyranoside | – | together with: 4MU-β-D-glucopyranoside | – | IC50 | 40000 nM |
| CCc1nc2cc3ccccc3cc2cc1C(=O)N1CCC[C@H]1C(=O)N[C@@H](C/C=C/C[C@H](NC(=O)[C@@H]1CCCN1C(=O)c1cc2cc3ccccc3cc2nc1CC)C(=O)N[C@@H](CCCCN)C(=O)NCCCN)C(=O)N[C@@H](CCCCN)C(=O)NCCCN | (CUG)4 RNA | SPR | – | – | – | Kd | 48 nM |
| OC[C@H]1[C@@H](O)[C@H](O)[C@@H](O)CN1CCCCCOCC12CC3CC(C1)CC(COCCCCCN1C[C@H](O)[C@@H](O)[C@H](O)[C@@H]1CO)(C3)C2 | GBA1 R534H | inhibitor, 4MU-β-D-glucopyranoside | – | together with: 4MU-β-D-glucopyranoside | – | IC50 | 6000 nM |
| C/C(=N\NC(=O)c1ccc(Cl)cc1)c1ccccn1 | Trypanosoma cruzi | reporter mRNA translation, inhibitor, item: capped polyadenylated Renilla luciferase mRNA | cell-free extract | concentration not given | reference: positive over negative control | translation activity | 107% and 104% and 121% and 115% |
